{"data": "Measurements of several laboratories", "organism": "Leishmania donovani", "note": "Compare with care: the assays were run in different laboratories. pIC50: −log10 of the molar value."}
{"SMILES": "Cc1nn(Cc2ccc(O)c(C=O)c2)c(=O)[nH]c1=O", "test": "parasite growth, SYBR Green", "system": "RAW264.7", "conditions": "intracellular, amastigote", "quantity": "pIC50", "result": 4.52}
{"SMILES": "N=C(N)c1ccc(OCCCCCOc2ccc(C(=N)N)cc2)cc1", "test": "Alamar Blue", "system": "promastigotes", "conditions": "72 h, 26 °C", "quantity": "IC50", "result": "0.8 µg/mL"}
{"SMILES": "O=[N+]([O-])c1ccc2[nH]ccc2c1", "test": "parasite growth, resazurin", "system": "THP-1", "conditions": "24 h, intracellular, amastigote", "quantity": "pIC50", "result": "< 5.00"}
{"SMILES": "CC/C(=C\\c1ccc(OCC(=O)NC(Cc2ccccc2)C(=O)N2CCOCC2)cc1)[N+](=O)[O-] (stereo not shown)", "system": "macrophages, intracellular amastigotes", "conditions": "72 h", "quantity": "pIC50", "result": 5.09}
{"SMILES": "COc1ccc2c(c1)c1cc(C=O)c(OC)cc1n2C", "test": "viability", "system": "promastigotes", "conditions": "72 h, 26 °C", "quantity": "IC50", "result": "> 40 µg/mL"}
{"SMILES": "C[C@@H]1[C@H](O)[C@@H](C)/C=C/C=C/C=C/C=C/C=C/C=C/C=C/[C@H](O[C@@H]2O[C@H](C)[C@@H](O)[C@H](N)[C@@H]2O)C[C@@H]2O[C@](O)(C[C@@H](O)C[C@@H](O)[C@H](O)CC[C@@H](O)C[C@@H](O)CC(=O)O[C@H]1C)C[C@H](O)[C@H]2C(=O)O", "test": "parasite growth, resazurin", "conditions": "72 h, promastigote", "quantity": "IC50", "result": "0.09 µg/mL"}
{"SMILES": "C[C@@H]1[C@H](O)[C@@H](C)/C=C/C=C/C=C/C=C/C=C/C=C/C=C/[C@H](O[C@@H]2O[C@H](C)[C@@H](O)[C@H](N)[C@@H]2O)C[C@@H]2O[C@](O)(C[C@@H](O)C[C@@H](O)[C@H](O)CC[C@@H](O)C[C@@H](O)CC(=O)O[C@H]1C)C[C@H](O)[C@H]2C(=O)O", "test": "growth", "system": "MHOM/SD/00/1S axenic amastigotes", "conditions": "in dark", "quantity": "pIC50", "result": "6.89 to 7.10"}
{"SMILES": "N=C(N)c1ccc(OCCCCCOc2ccc(C(=N)N)cc2)cc1", "test": "viability, Alamar blue", "system": "promastigote", "conditions": "72 h, 26 °C", "quantity": "pIC50", "result": 5.54}
{"SMILES": "CCCCCCCCCCCCCCCCOP(=O)([O-])OCC[N+](C)(C)C", "test": "parasite growth, SYBR Green", "system": "RAW264.7", "conditions": "intracellular, amastigote", "quantity": "pIC50", "result": 4.93}
{"SMILES": "C#CCn1cc(C=O)c2cc([N+](=O)[O-])ccc21", "test": "parasite growth, resazurin", "system": "THP-1", "conditions": "24 h, intracellular, amastigote", "quantity": "pIC50", "result": "< 5.00"}
{"SMILES": "COc1ccc2[nH]c3cc(OC)c(C=O)cc3c2c1", "test": "viability", "system": "axenic amastigotes", "conditions": "72 h", "quantity": "IC50", "result": "> 40 µg/mL"}
{"SMILES": "O=C1CSC(=S)N1/N=C/c1cn(Cc2ccccc2)c2ccc([N+](=O)[O-])cc12", "test": "parasite growth, resazurin", "system": "THP-1", "conditions": "72 h, intracellular, amastigote", "quantity": "pIC50", "result": "< 5.00"}
{"SMILES": "O=Cc1cc(Cn2cc(F)c(=O)[nH]c2=O)ccc1O", "test": "parasite growth, SYBR Green", "system": "RAW264.7", "conditions": "intracellular, amastigote", "quantity": "pIC50", "result": "< 4.00"}
{"SMILES": "C#CCn1cc(/C=C2\\SC(=S)NC2=O)c2cc([N+](=O)[O-])ccc21", "test": "parasite growth, resazurin", "system": "THP-1", "conditions": "72 h, intracellular, amastigote", "quantity": "pIC50", "result": "< 5.00"}
{"SMILES": "O=Cc1cc(Cn2ccc(=O)[nH]c2=O)ccc1O", "test": "parasite growth, SYBR Green", "system": "RAW264.7", "conditions": "intracellular, amastigote", "quantity": "pIC50", "result": "< 4.00"}
{"SMILES": "N=C(N)c1ccc(OCCCCCOc2ccc(C(=N)N)cc2)cc1", "test": "parasite growth", "system": "THP-1", "conditions": "intracellular, amastigote", "quantity": "pIC50", "result": 5.19}
{"SMILES": "O=C1CSC(=S)N1/N=C/c1cn(Cc2ccc(F)cc2)c2ccc([N+](=O)[O-])cc12", "test": "parasite growth, resazurin", "system": "THP-1", "conditions": "72 h, intracellular, amastigote", "quantity": "pIC50", "result": "< 5.00"}
{"SMILES": "O=Cc1cc2c(cc1O)[nH]c1ccc(O)cc12", "test": "viability", "system": "axenic amastigotes", "conditions": "72 h", "quantity": "IC50", "result": "> 40 µg/mL"}
{"SMILES": "O=Cc1c[nH]c2ccc([N+](=O)[O-])cc12", "test": "parasite growth, resazurin", "system": "THP-1", "conditions": "24 h, intracellular, amastigote", "quantity": "pIC50", "result": "< 5.00"}
{"SMILES": "C[C@@H]1N[C@H](CCCCCCCCCCc2cc(CCCCCCCCCC[C@H]3CC[C@@H](O)[C@@H](C)N3)c[n+]3c2CCC3)CC[C@H]1O", "test": "parasite growth, resazurin", "conditions": "72 h, amastigote", "quantity": "IC50", "result": "2.14 µg/mL"}
{"SMILES": "O=C1CSC(=S)N1/N=C/c1cn(Cc2cccc(Cl)c2)c2ccc([N+](=O)[O-])cc12", "test": "parasite growth, resazurin", "system": "THP-1", "conditions": "24 h, intracellular, amastigote", "quantity": "pIC50", "result": "< 5.00"}
{"SMILES": "CCn1cc(C(=O)NCCNCCO)c(=O)c2cc(OC)c(OCc3cc(F)cc(F)c3)cc21", "system": "Bob promastigotes", "conditions": "120 h", "quantity": "pIC50", "result": "< 4.70"}
{"note": "Excerpt of the above:"}
{"SMILES": "CCn1cc(C(=O)NCCNCCO)c(=O)c2cc(OC)c(OCc3cc(F)cc(F)c3)cc21", "system": "Bob promastigotes", "conditions": "120 h", "quantity": "pIC50", "result": "< 4.70"}
{"SMILES": "C#CCn1cc(/C=C2\\SC(=S)NC2=O)c2cc([N+](=O)[O-])ccc21", "test": "parasite growth, resazurin", "system": "THP-1", "conditions": "72 h, intracellular, amastigote", "quantity": "pIC50", "result": "< 5.00"}
{"SMILES": "CC/C(=C\\c1ccc(OCC(=O)NC(Cc2ccccc2)C(=O)N2CCOCC2)cc1)[N+](=O)[O-] (stereo not shown)", "system": "macrophages, intracellular amastigotes", "conditions": "72 h", "quantity": "pIC50", "result": 5.09}
